# Assay results pooled from the literature.
# Parts stem from different laboratories: compare values within a part only. Changes are numbered by the printed parent chain.

# Study 1 — technique: RNA Bind-n-Seq; form: RNA; matrix: in vitro; tested at: 1 µM; setting: whole 134-nt RNA, ends assumed; with: 150 mM KCl; relative to: input library; direction: higher = stronger binding
# Target: Ras GTPase-activating protein-binding protein 1, C-terminal RGG region (G3BP1, Homo sapiens, UniProt Q13283)
# Sequence of UniProt Q13283 (whole entry, looked up): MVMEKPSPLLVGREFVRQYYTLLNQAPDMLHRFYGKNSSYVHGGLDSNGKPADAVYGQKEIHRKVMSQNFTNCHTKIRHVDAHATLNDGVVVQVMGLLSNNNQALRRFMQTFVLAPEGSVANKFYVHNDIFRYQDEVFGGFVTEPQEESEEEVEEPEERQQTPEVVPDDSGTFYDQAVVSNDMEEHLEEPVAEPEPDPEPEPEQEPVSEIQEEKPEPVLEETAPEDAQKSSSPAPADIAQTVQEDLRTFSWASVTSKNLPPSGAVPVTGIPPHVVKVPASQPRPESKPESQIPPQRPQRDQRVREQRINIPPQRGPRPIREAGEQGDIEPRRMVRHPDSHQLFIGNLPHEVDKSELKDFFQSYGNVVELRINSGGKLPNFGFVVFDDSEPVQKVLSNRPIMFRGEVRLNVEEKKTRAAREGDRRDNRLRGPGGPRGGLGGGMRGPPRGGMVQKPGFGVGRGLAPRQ
Strand,log2 enrichment
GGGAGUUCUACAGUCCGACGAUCCCUCAAGUCCUGUGCUACACAUCGUAUGUACCGAAUCGGAGGUUUGGAAAGGAAAGUAUUAUGUUACGCCGUUCGGAUCUGCACUUCCAGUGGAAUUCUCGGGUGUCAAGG,-0.877
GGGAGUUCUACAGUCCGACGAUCAGUCCUGUGCUACACAUCGUAUGUACCGAAUCGGAAAAAAAGGAAAGGUUUUUUUGGAAAGUAUUAUGUUACGCCGUUCGGAUCUGCACUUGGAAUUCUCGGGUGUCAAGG,-2.39
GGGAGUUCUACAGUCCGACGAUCUGGCCCUGGUGGCAUGCGGGGAGGAAGAGGUGGCCUCAUGGAUCGUAGUGGUCCCGGUGGAAUGUUCAGAGGUGGCCGUGGUGGAGACAGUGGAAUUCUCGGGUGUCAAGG,2.34
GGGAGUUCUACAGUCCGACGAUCUCCUGUGCUACACAUCGUAUGUACCGAAUCGGGGAAAAAAGGAAAAAAGGAAAAAAGGGAAAGUAUUAUGUUACGCCGUUCGGAUCUGCAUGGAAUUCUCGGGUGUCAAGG,-1.24
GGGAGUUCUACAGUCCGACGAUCCUGUGCUACACAUCGUAUGUACCGAAUCGGGGAAAAAAAGGAAAAAAAGGGGAAAAAAAGGAAAGUAUUAUGUUACGCCGUUCGGAUCUGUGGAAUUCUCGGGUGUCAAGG,-1.41
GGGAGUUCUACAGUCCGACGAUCCACAGACAACACGCACCCACACAGACACAGAGGGAAGGGGUUGGGAUGGGGAUAGGGUGCACAGCAGGGCGGGGUAGGACCCCAGCCCCUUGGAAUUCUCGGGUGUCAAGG,0.362
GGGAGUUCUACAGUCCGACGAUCUCAAGUCCUGUGCUACACAUCGUAUGUACCGAAUCGGGAAAGGGAAAGGGUGGGAAAGUAUUAUGUUACGCCGUUCGGAUCUGCACUUCCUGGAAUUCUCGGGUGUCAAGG,1.62
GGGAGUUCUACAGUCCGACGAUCUCCUGUGCUACACAUCGUAUGUACCGAAUCAAAGUGUGUGUGUGUGUGUGUGUGUGUAAAAAAGUAUUAUGUUACGCCGUUCGGAUCUGCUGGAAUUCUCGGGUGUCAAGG,1.27
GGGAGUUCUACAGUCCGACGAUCCCUGUGCUACACAUCGUAUGUACCGAAUCGGGUUUUUGGGUUUUUUUGGGAAAAAAAGGGAAAGUAUUAUGUUACGCCGUUCGGAUCUGCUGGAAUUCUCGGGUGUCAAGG,-1.92
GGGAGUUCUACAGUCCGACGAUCCCUGUGCUACACAUCGUAUGUACCGAAUCGGGUUUUUUGGGGUUUUUUGGGGUUUUUUGGAAAGUAUUAUGUUACGCCGUUCGGAUCUGCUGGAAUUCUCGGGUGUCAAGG,-1.12
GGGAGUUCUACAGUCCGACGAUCACCAUGCAGGUGGGCAUCUUUGAAAAGUGGGGCAAGGGGGGGAUAGGGAGGGGGGUAACACUUUGGGAACAGGUGGUCCCAGGUCGUUUCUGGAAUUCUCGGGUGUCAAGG,-1.16
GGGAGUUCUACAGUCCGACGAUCUGGGAGGUGGAUUUUGUUUAUUUUUUUAGCUCAUUUCCAUGGGUGGGAAUUUUUUUUUAAUAUGUGUCAUGAAUAAAGUUGUUUUUGAAAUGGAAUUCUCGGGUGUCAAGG,3.13
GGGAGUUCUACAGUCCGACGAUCGUCCUGUGCUACACAUCGUAUGUACCGAAUCGGGUUUUUUUGGGUUUUUUUGGGUGGGAAAGUAUUAUGUUACGCCGUUCGGAUCUGCACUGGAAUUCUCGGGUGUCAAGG,0.0541
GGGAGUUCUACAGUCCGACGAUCUAACUUUAGAGGAGGAUCUGAUGGAUAUGGCAGUGGACGUGGAUUUGGGGAUGGCUAUAAUGGGUAUGAAGGAGGACCUGGAGGUGGCAAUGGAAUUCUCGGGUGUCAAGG,-0.8

# Study 2 — technique: DHFR PCA, deep sequencing; matrix: yeast; with: (+)-ABA 17 µM; relative to: wild-type fitted maximum; direction: higher = stronger binding
# Target: ABI1, truncated, D143A, DHFR fusion (Arabidopsis thaliana)
# Setting: methotrexate growth selection, single substitutions
# Starting sequence: PYL1, truncated, DHFR fusion (Arabidopsis thaliana); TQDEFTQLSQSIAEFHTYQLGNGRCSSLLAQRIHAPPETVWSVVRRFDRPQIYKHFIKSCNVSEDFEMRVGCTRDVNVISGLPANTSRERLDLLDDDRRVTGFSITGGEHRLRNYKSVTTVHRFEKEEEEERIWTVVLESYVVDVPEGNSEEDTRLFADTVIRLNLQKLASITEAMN; partner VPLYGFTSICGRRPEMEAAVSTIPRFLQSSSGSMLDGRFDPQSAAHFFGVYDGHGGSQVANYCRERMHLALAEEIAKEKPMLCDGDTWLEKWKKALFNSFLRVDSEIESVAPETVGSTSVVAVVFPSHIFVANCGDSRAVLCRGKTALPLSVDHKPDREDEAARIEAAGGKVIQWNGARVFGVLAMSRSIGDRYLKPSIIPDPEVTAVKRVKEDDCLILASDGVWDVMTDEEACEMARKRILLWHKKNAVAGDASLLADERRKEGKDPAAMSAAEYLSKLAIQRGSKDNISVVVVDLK
Variant,relative binding score [%]
Y141V,-2.18
E125K,88.9
N165E,-8.22
K126P,92
N61Q,87.2
V121M,6.22
S63E,85.5
V78A,39.2
D65P,87.5
I12Y,25.7
F47N,-25
D65W,41.2

# Study 3 — target: CCND2, cyclin fold, Cln2 fusion (human); technique: yeast growth competition, sequencing; matrix: yeast; setting: weak parent motif; relative to: not given; direction: higher = stronger binding
# Starting sequence: SCAPER docking peptide (human); SNARRSLNFGGST
Variant,normalised enrichment score
S12C,0.252
N2H,0.112
L7S,0.157
R5G,-0.383
S6C,1.14
N2Y,0.046
S1P,0.0604
A3E,0.0788
T13N,0.732
N2E,0.301
R5A L7A,0.0322
S1D,0.304
T13R,0.479

# Single results of other studies
Substance,target,test,test system,conditions,how to read,quantity,result
"PhoQ, residues 284 288 289 292 302 303 TYGVAM","PhoP, residues 12 14 15 18 19 SEGLL (Escherichia coli, UniProt P23836)","Sort-seq, item: YFP reporter",E. coli,"PhoQ-PhoP variant library, with: 10 µM Mg2+","relative to: high Mg2+ state, higher = stronger signaling",fold induction,12.7
